Experimental data pooled from the literature.
Numbers after ± are the reported error.
Cell line: HCT-15

COc1c(C)c2c(c(O)c1C/C=C(\C)CCC(=O)O)C(=O)OC2
IC50 (cell proliferation; colon cancer): 200 nM

N.N.[Cl][Pt][Cl]
IC50 (cell growth, MTT; 48 h, LED light photolysis 1 h): 16800 ± 4800 nM

CCN(CC)c1ccc(C=NNC(=O)CSc2nc3ccccc3c(=O)n2Cc2ccc(S(N)(=O)=O)cc2)c(O)c1
CC50 (NCI five-dose screen): > 100000 nM

COc1c(CCC[P+](c2ccccc2)(c2ccccc2)c2ccccc2)cc2c(c1OC)OCO2.[I-]
LC50 (SRB): > -4 log M

Cn1cncc1C1=CN(c2ncnc3[nH]cnc23)CCS1
CC50 (colon cancer): > 200000 nM

Nc1ncc(-c2nc(N3CCOCC3)nc(N3CCOCC3)n2)c(C(F)F)n1
GI50 (72 h): 161 nM

COc1cc(CCC[P+](c2ccccc2)(c2ccccc2)c2ccccc2)c(OC)c2c1OCO2.[I-]
LC50 (SRB): > -4 log M

CN1CCN(C2(CNC3CCN(c4cccc(-c5cc6cc(F)ccc6[nH]5)c4)CC3)CCC2)CC1
GI50: 455 nM
